Published values from different studies.
Parts stem from different laboratories: compare values within a part only.

Study 1 — technique: protein binding microarray; molecule type: double-stranded DNA, one strand shown; sample: in vitro; concentration: not given; baseline: not given; reading: higher = stronger binding; quantity: E-score
Target: Histone acetyltransferase KAT6A, winged helix 1, GST fusion (KAT6A, Homo sapiens, UniProt Q92794, residues 1-85)
Notes: 8-mer, flanks averaged, mean of 2 arrays, mostly near background
Construct (chain): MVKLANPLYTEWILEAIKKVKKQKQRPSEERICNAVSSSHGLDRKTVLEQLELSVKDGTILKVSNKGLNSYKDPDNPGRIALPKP
CCTCGGCC: 0.145
AGGTGGCG: -0.0228
CATTAGGC: -0.0187
GGTCGCCA: 0.074
TGCACAAA: -0.25
CGCGGCTC: 0.415
CTACAAAA: -0.112
AACATAAA: -0.202
GCACGCAA: 0.154
GCTTCCGA: 0.133
AGTGGGTG: -0.0538
AGGTACAG: -0.11
GACGCAGA: 0.176
CGATGCTC: 0.0656
CCTCTAAA: -0.189
TAATACGA: -0.189

Study 2 — technique: protein-binding microarray; molecule type: double-stranded DNA, one strand shown; sample: in vitro; concentration: 940 nM top; notes: 60-bp whole probe; together with: salmon DNA 0.4 mg/ml; baseline: random background probes; reading: higher = stronger binding; quantity: fitted relative affinity; constant ends, left off below: GCCTAGCAC … GTCTTGATTCGCTTGACGCTGCTG
Target: Interferon regulatory factor 5, full length, phosphomimetic (IRF5, Homo sapiens, UniProt Q13568-2, residues 1-514, S451D/S453D/S456D/S462D)
TTAGGTATCCTACTGCTTAAGTGCTAG: -0.168 z-score
GACGGACTGCTACTGCTAACGTGCTAG: -0.695 z-score
GACGATCTCAGTCTCGAGCCGTGCTAG: 0.679 z-score
TTAGGTCTTCTACTGCTTTAGTGCTAG: 0.125 z-score
TCAATTCTCACTGCAGCACTGTGCTAG: 1.62 z-score
TCAGTTGTACTTTCTATCACTGTGCTA: 1.38 z-score
TTAGAACTGGGGTACCGATTAGTGCTA: 0.133 z-score
GACGGTATCGACTTACGGGACGTGCTA: 4.93 z-score
GACGAACTGACACTGGAGACGTGCTAG: -0.672 z-score
TCAAAAATGGAAACTCGTACTGTGCTA: 0.467 z-score
TTAGGTTTCGGTCGCGGTTAGTGCTAG: 14.8 z-score
TCACCTCTCACCTCGGCACTGTGCTAG: 1.03 z-score
TACGGTATCGGGTTTCGGGACGTGCTA: 5.24 z-score
TTAGGTATCGGTTTCGGGTAGTGCTAG: 10.7 z-score
TTAGAACTGAGTATCGATTCGTGCTAG: 3.53 z-score
GCCGGACTGCTACTGCTGACGTGCTAG: -0.824 z-score
TTAGGGTTCGGGACTGGGTTAGTGCTA: -0.263 z-score
GACGGTTTAGGGTTTCGGGACGTGCTA: 2.28 z-score
TCACCTATAGGGCCTGACACTGTGCTA: -0.107 z-score
TCAAGTATGACTCTGCCACTGTGCTAG: -0.154 z-score
TCAGGTCTCCCTTGAGGACTGTGCTAG: -0.0748 z-score

Study 3 — technique: RNA Bind-n-Seq; molecule type: RNA; sample: in vitro; concentration: 365 nM; baseline: no-protein control; reading: higher = stronger binding; quantity: RBNS enrichment (R)
Target: RNA binding protein fox-1 homolog 2, RRM domain, GST-SBP tag (RBFOX2, Homo sapiens, UniProt O43251-10, residues 100-194)
Notes: natural RNA segment, single round, ends assumed
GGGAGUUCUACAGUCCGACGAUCUGUUUUGUUUUAAGGUAACUACUGAAAUAAGUCUGGCUGUUUUUAUAUGCCAGAUACAGAGAAUUUUUAGCGGUUAUUUUUGUAAUUUUAGUAACUUGGAAAAGACCAAAUGGAAUUCUCGGGUGCCAA: 0.602
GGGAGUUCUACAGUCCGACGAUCGUUUUACUUGUUAGGGUCAAGGGUGUCUUGCCCAUUAACAGCUGUAGAUAGACAUUAAAGUAAAGCAGCUGUUUGUUAUUGAUAAUAAAAUACUAAGUAUUAUAAAACUGUGGAAUUCUCGGGUGCCAA: 0.616
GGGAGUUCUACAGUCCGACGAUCAGUGUCUGUAUAUUUGUGAUGCAAUGGUCUUGUAAAGGUUUUUACUGAAAACUAUCAUUAGCCAGCCUUUCUUACUGACAAUAAAUUAUUAAUAAAAUACUUUAGCUUUAUGGAAUUCUCGGGUGCCAA: 0.587
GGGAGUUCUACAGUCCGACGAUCUAAUGAACAUGAGCAGAAGCCUAAGUUGGGACAGCUCAGAACCAAGCAAGAGGGGGCCGUUUUAAUGAAUUAGAUUGAAAAAUAGGCCUAAGCCGUUUGUACCUUAGUUUUGGAAUUCUCGGGUGCCAA: 0.669
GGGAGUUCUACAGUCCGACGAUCAAAAUAUAUGUACUUUAAAAAGUUCUGAUUUCCAAAUAUAAUAAAGUUAAAAUUAAGUAUAUACUUUAGGAAGUUACCAAUAACUUCCAUCAAAGCAGAGUAGGAUAUAUUGGAAUUCUCGGGUGCCAA: 0.535
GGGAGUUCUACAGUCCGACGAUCUAAAGCCAGUAGUGUGGCAACAGAAUAGCACAGUAUAACUCAGUUGAGACAUGACUUCAAGACUCGAGACUUGGUAGAAUCCUUUUACUUGGCCAUCUGAGUAGAAAUAGUGGAAUUCUCGGGUGCCAA: 0.837
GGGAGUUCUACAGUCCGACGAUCCUGGUUACAGUUGGAUCAAUCAGUAUAUAUCAGAUUUCUGGUGUUUCAAGCAAGAAGCGGGCGGAGUAAACGCGUGUGACCACUUAAAGCUGCUUGUUAACAUGGAAGACUGGAAUUCUCGGGUGCCAA: 0.534
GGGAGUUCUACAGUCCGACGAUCCAGAUUAUCCCUGGGUUUGGGCUGCAGUCACCUGGAGAAGCUGGUAGGGUAAGGGAGAGGGACCCUGCCGGUGUUCACUGGGGAUUCUUUCUUUUGGUCCUUCCUGGAAUUGGAAUUCUCGGGUGCCAA: 0.403
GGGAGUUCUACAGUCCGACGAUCAGCAGCACCUCCCUCAUGGCUGUCUGCACCUGCCCACCUACCUGGCUCUGACCGUUCCCACCACCAUCUGCAUGUCCCCACUGGGCCUGAGUCUAGCCUGGGAGCCAGGAUGGAAUUCUCGGGUGCCAA: 16.5
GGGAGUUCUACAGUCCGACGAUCGCCAGCCACCGUUCCAGGUCCUGUUGAGAUCAUCAUGUAACAGGACAACAAAGUCCCUGUCCUCAUGGGGCUUAUAUUCUGAUCCAUUUCCUCAUCUAUGAAAUGAAGAUUGGAAUUCUCGGGUGCCAA: 0.439
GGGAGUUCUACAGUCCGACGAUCUUGCUGUCACUUUGGCGAGGGAGUGGAUAUAGGGCAUGUCACAAAAGAACAAAAUAACCCGACCUUUAUUGCUGGGAGCUGGCUUCUGUCCCUUUCUUCCCCCCCCCACGUGGAAUUCUCGGGUGCCAA: 0.474
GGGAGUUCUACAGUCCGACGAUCUAGAAUUUGGGAGAAGCAAAUAUAGGUCCUGUGUUAAACACUACACAUUUGAAACAAGCUAACCCUGGGGAGUCUAUGGUCUCUUCACUCAGGUCUCAGCUAUAAUUCUGUGGAAUUCUCGGGUGCCAA: 0.473

Study 4 — technique: protein-binding microarray; molecule type: hairpin DNA; sample: in vitro; concentration: not given; baseline: not given; reading: higher = stronger binding; quantity: median fluorescence; constant ends, left off below: GAGGCCAT … ATGGCCTCACACTC
Target: FOXO3, forkhead domain (mouse, UniProt Q9WVH4, residues 31-263)
Sequence of UniProt Q9WVH4 (31-263, looked up): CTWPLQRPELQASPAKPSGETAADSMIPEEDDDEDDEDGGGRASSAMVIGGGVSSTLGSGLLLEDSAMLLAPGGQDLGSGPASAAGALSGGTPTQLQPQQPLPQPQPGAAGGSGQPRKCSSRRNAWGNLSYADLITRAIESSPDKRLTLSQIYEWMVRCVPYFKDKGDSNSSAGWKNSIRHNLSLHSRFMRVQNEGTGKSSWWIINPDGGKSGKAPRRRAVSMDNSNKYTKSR
Notes: whole hairpin DNA, median over replicate spots
GCGAACAACGCCTCCTGGCGTTGTTCGC (5mC at 10 34): 4350 a.u.
GTCAACAACGCCTCCTGGCGTTGTTGAC (5mC at 11): 4470 a.u.
GTCACCAACGCCTCCTGGCGTTGGTGAC: 4400 a.u.
GTAACCACGGCCTCCTGGCCGTGGTTAC (5mC at 28): 4110 a.u.
GTAACCAACGCCTCCTGGCGTTGGTTAC (5mC at 14): 3980 a.u.
GCCGACAACGCCTCCTGGCGTTGTCGGC: 4660 a.u.
GCACGCAACGCCTCCTGGCGTTGCGTGC (5mC at 12): 4750 a.u.
GTCGCCAACGCCTCCTGGCGTTGGCGAC (5mC at 33): 4760 a.u.
GTAAACCGCGCCTCCTGGCGCGGTTTAC (5mC at 29): 4520 a.u.
GTAACCGACGCCTCCTGGCGTCGGTTAC (5mC at 14 30): 4160 a.u.
CTAAACAACGCCTCCTGGCGTTGTTTAG (5mC at 9): 3870 a.u.
GCAAACAACGCCTCCTGGCGTTGTTTGC (5mC at 17): 4970 a.u.
GTAAACATCGCCTCCTGGCGATGTTTAC: 4900 a.u.
GTAAGCAACGCCTCCTGGCGTTGCTTAC: 4360 a.u.
GCAAAAAACGCCTCCTGGCGTTTTTTGC: 3990 a.u.
GCCGACAACGCCTCCTGGCGTTGTCGGC (5mC at 33): 4620 a.u.

Study 5 — technique: aptamer microarray, sandwich; molecule type: DNA with 2'F-ANA; sample: in vitro; concentration: 200 nM; together with: Cy3 exosite-II aptamer, 400 nM; reading: higher = stronger binding; quantity: mean fluorescence intensity; sequence: GGTTGGTGTGGTTGG
Target: Prothrombin, mature alpha-thrombin (F2, Homo sapiens, UniProt P00734)
Notes: whole 15-mer aptamer, many near background
2'F-ANA at 6 7 8 10 11 12 13 14 15: 119 a.u.
2'F-ANA at 2 3 5 7 9 10 11 12 13 14: 81 a.u.
2'F-ANA at 1 3 4 7 8 9 10 11 12 13 15: 71.3 a.u.
2'F-ANA at 1 2 3 5 10 11 13 14: 45.1 a.u.
2'F-ANA at 1 2 6 7 8 11 14 15: 58.6 a.u.
2'F-ANA at 1 2 4 6 9 10 11 12: 64.6 a.u.
2'F-ANA at 4: 393 a.u.
2'F-ANA at 2 4 5 6 8 11 12 13: 84.8 a.u.
2'F-ANA at 4 6 9 10: 82.2 a.u.
2'F-ANA at 8 9 10 13: 137 a.u.
2'F-ANA at 1 2 3 4 5 10 12: 52.4 a.u.
2'F-ANA at 1 3 4 10 11 15: 62.2 a.u.
2'F-ANA at 3 5 7 13 14 15: 56.6 a.u.
2'F-ANA at 1 2 4 5 7 8 10 12 13: 61.2 a.u.
2'F-ANA at 5 6 9 10 11 12 15: 50.5 a.u.
2'F-ANA at 1 2 4 6 7 8 9 10 12 13 15: 57.2 a.u.
2'F-ANA at 1 4 5 6 7 8 11 12 13 14: 62.6 a.u.
2'F-ANA at 1 5 7 9 10 11 13 15: 48 a.u.
2'F-ANA at 2 8 9 12 15: 711 a.u.
2'F-ANA at 1 2 3 5 6 8 12 13: 95.7 a.u.
2'F-ANA at 1 2 4 5 6 7 9 12 15: 89.5 a.u.
2'F-ANA at 1 2 3 6 8 9 10 11 12 13: 74.3 a.u.
2'F-ANA at 1 4 8 10 11 12 14 15: 46.2 a.u.
2'F-ANA at 2 3 11 13 14: 448 a.u.
2'F-ANA at 2 3 5 6 7 9 10 13 14 15: 50.3 a.u.

Excerpt of the above (study 1):
CATTAGGC: -0.0187
GGTCGCCA: 0.074
TGCACAAA: -0.25
CGCGGCTC: 0.415
CTACAAAA: -0.112
AACATAAA: -0.202
GCACGCAA: 0.154
GCTTCCGA: 0.133
AGTGGGTG: -0.0538
AGGTACAG: -0.11
